Measured values pooled from the literature.
Compare with care: the assays were run in different laboratories. ± marks the error that the study gave.

| SMILES | test | test system | setting | scale | measurement | value |
| --- | --- | --- | --- | --- | --- | --- |
| CCn1cc(C2CC2)c2c(Cc3ccc(C(F)(F)F)nc3)n(C)nc2c1=O | – | rat Sprague-Dawley male, blood | intravenous, 1 mg/kg | – | CLint,u | 68.2 mL/min/kg |
| CC(C)C[C@H](NC(=O)[C@@H](Cc1c[nH]c2ccccc12)NC(=O)[C@H](Cc1ccc(O)cc1)NC(=O)[C@H](CO)NC(=O)[C@H](Cc1c[nH]c2ccccc12)NC(=O)[C@H](Cc1c[nH]cn1)NC(=O)[C@@H]1CCC(=O)N1)C(=O)N[C@@H](CCCNC(=N)N)C(=O)N1CCC[C@H]1C(=O)NCC(N)=O | – | Chinese CPP children, girls | intramuscular, 22.5 mg, 12 months, day 1, month 6 | – | patients, drug-related skin TEAEs | 0% |
| COc1ccc(NC(=O)CCSc2nnc3scc(-c4ccc(C)cc4)n23)cc1 | – | octanol/buffer | pH 11, known kinase inactives set | – | logP | 3.6 |
| O=C(O)CCC(=O)O.[2H]C([2H])([2H])Oc1cc(C)c2[nH]ccc2c1CN1CC[C@@H](C2CC2)C[C@H]1c1ccc(C(=O)O)cc1 | – | healthy Chinese subjects | 100 mg, single ascending dose | – | TEAE urinary sediment detected | 0% |
| Cn1c(=O)c2[nH]cnc2n(C)c1=O | – | human, both sexes, cerebrospinal fluid | dose not given, median | – | CSF concentration | 43.9 nM |
| Cc1cc(-c2nccc3c2ccn3CC(=O)Nc2ccc(-c3cnccn3)cn2)ccn1 | – | human | MAD part, 15 mg once daily | – | subjects with any grade 3 TEAE | 0% |
| C[C@@H](O)CCOC(=O)C[C@@H](C)O | item: pH | human, venous blood | oral, 60 min, unit not given | baseline: baseline | decrease | -0.07 |
| CO[C@H]1C[C@@H]2CC[C@@H](C)[C@@](O)(O2)C(=O)C(=O)N2CCCC[C@H]2C(=O)O[C@H]([C@H](C)C[C@@H]2CC[C@@H](O)[C@H](OC)C2)CC(=O)[C@H](C)/C=C(\C)[C@@H](O)[C@@H](OC)C(=O)[C@H](C)C[C@H](C)/C=C/C=C/C=C/1C | – | healthy adult horses | oral, 0.06 mg/kg, 12 h | – | heart rate | 33.5 ± 1.9 beats/min |
| NC1(C(=O)N[C@@H](CCO)c2ccc(Cl)cc2)CCN(c2nc[nH]c3nccc2-3)CC1 | – | human | – | – | zero-order absorption duration | 45 h |
| CNCc1ccc(-c2[nH]c3cc(F)cc4c3c2CCNC4=O)cc1 | – | patients | oral, 600 mg twice daily, grade 4 | – | abdominal distension incidence | 0% |
| Nc1cccc2ccc(/C=C/C(=O)c3ccccc3)cc12 | – | toluene | – | baseline: coumarin 153 in ethanol | fluorescence quantum yield | 46.5 ± 2.2% |
| Cn1ncnc1[C@H]1c2n[nH]c(=O)c3cc(F)cc(c23)N[C@@H]1c1ccc(F)cc1 | LC-MS/MS | human patients, plasma | oral, 600 µg/m2/day | – | accumulation half-life | 60 ± 51 h |
| O=C(COc1ccc(Cl)cc1)NC12CC(c3nnc([C@H]4C[C@@H](OC(F)(F)F)C4)o3)(C1)C2 | – | humans | concentration not given | – | muscle spasms | 5.3% |
| CNC(=O)c1cc(Oc2ccc(NC(=O)Nc3ccc(Cl)c(C(F)(F)F)c3)cc2)ccn1 | – | female wild-type DBA1/lacJ mice, plasma | oral, 10 mg/kg, no rifampin, geometric mean | – | Cmax | 4240 ng/mL |
| C=CC(=O)Nc1cc(Nc2nccc(-c3cn(C)c4ccccc34)n2)c(OC)cc1N(C)CCN(C)C | storage stability | human plasma | 72 h, on ice, high QC level | – | recovery | 77.2% |
| CC(=O)c1ccc([C@H]2C[C@@]3(C)[C@@H](CC[C@@]3(O)C(F)(F)C(F)(F)F)[C@@H]3CCC4=CC(=O)CCC4=C32)cc1 | – | human, pooled serum | oral, 200 mg, day 1, 0 h | – | serum concentration | 5.7 ng/mL |
| CCO[C@H]1CCN(Cc2c(OC)cc(C)c3[nH]ccc23)[C@H](c2ccc(C(=O)O)cc2)C1 | – | human mild hepatic impairment, plasma | oral, 200 mg single dose, geometric mean | – | unbound Cmax | 905 ng/mL |
| COc1ccc([C@@H](O)c2cc(-c3ncnc4cc(N5CCOCC5)ccc34)c(F)cc2Cl)nn1 | – | locally advanced rectal cancer patients | 250 mg, together with: capecitabine and radiotherapy | – | gastrointestinal disorder TEAE | 100% |
| O=C(Nc1ccc(OC(F)(F)Cl)cc1)c1cnc(N2CC[C@@H](O)C2)c(-c2ccn[nH]2)c1 | per laboratory record, item: AST increase | human patients | oral, dose not given | – | grade ≥2 event rate | 0.1% |
| COC(=O)c1ccc(NC(=O)CSc2nnnn2-c2ccccc2OC)cc1 | – | octanol/buffer | pH 11, known kinase inactives set | – | logP | 3.55 |
| Nc1c(CC(=O)O)cccc1C(=O)c1ccc(Br)cc1 | – | cynomolgus monkey hepatocytes | 4 °C, 10% monkey serum | – | passive uptake clearance | 2 µL/min/10⁶ cells |
| C=CC(=O)Nc1cc(Nc2nccc(Nc3cc(Cl)c(F)cc3C(C)(C)O)n2)c(OC)cc1N1CC[C@@H](N(C)C)C1 | – | human patients, plasma | oral, 100 mg daily, cycle 2 day 1, geometric mean | – | Css,max | 252 ng/mL |
| COc1cc(-c2nnc(SCC(N)=O)n2C)cc(OC)c1OC | – | octanol/buffer | pH 11, known kinase inactives set | – | logP | 0.25 |

| SMILES | test | test system | setting | scale | measurement | value |
| --- | --- | --- | --- | --- | --- | --- |
| CC(C)(C(=O)N1CCOc2c(C#N)cncc2C1)C(F)F | item: Palpitations | human | oral, 20 mg once daily, 14 days, multiple ascending dose | – | subjects with adverse event | 12.5% |
| CC(C)n1c(Nc2cccnc2)nc2cnc(Nc3ccc(N4CCN(C)CC4)cc3)nc21 | item: eosinophil count increased | healthy male subjects | oral, 150 mg, study, together with: rifampin | – | subjects with adverse event | 7.1% |
| CCN1CCN(Cc2ccc(Nc3ncc(F)c(-c4cc(F)c5nc6n(c5c4)[C@H](C)CCC6)n3)nc2)CC1 | – | human, plasma | 300 mg single dose, mean | – | Vd/F | 2320 L |
| COc1cc(Nc2ncc3c(n2)-c2ccc(Cl)cc2C(c2c(F)cccc2OC)=NC3)ccc1C(=O)O | item: Fatigue, grade 1 | cancer patients, phase 1/2 | oral, dose not given, together with: pembrolizumab | – | patients with adverse event | 46% |
| C[C@H](O)c1cc(C(=O)N[C@@H](C)Cn2ccc(-c3ccc(C#N)c(Cl)c3)n2)n[nH]1 | – | human, fasted | oral, 300 mg darolutamide tablet, geometric mean | – | Vd/F | 337 L |
| CCOc1c([C@H](C)n2nc(C)c3c(N)ncnc32)cc(Cl)c(F)c1[C@@H]1CNC(=O)C1 | – | patients, monotherapy | oral, 10 mg once daily, cycle 1 day 1 | – | Cmax geometric mean | 646 nM |
| CCOc1ccc(C(C)=O)cc1Cc1c(O)nc(N)nc1O | – | octanol/buffer | pH 11, known kinase inactives set | – | logP | -2.1 |
| CCc1cc(C(=O)NC)c2nccc(N3CCc4c(cc(Cn5ccnc5)cc4-c4cn(C)nc4C(F)(F)F)C3=O)c2c1 | – | Sprague Dawley rats | oral, 100 mg/kg once daily, 7 days | – | serum UREA level | 5.7 ± 0.49 mmol/L |
| Cc1cc(NC2CCN(C(=O)OC3CCN(C(=O)/C=C/CN(C)C)C3)CC2)n2ncc(C(C)C)c2n1 (stereo not drawn) | CTCAE v4.0, item: Diarrhea | patients with advanced solid tumours | oral, dose not given, all schedules, grade 3 or higher | – | patients with TEAE | 4% |
| O=[N+]([O-])c1ccc(-c2ccc(O)cc2)c2cccnc12 | – | male ICR mouse, plasma | oral, 5 mg/kg | – | CL/F | 2490 mL/min/kg |
| Cc1ccc([C@@H]2O[C@H](CO)[C@@H](O)[C@H](O)[C@H]2O)cc1Cc1ccc(-c2ccc(F)cc2)s1 | – | Japanese type 2 diabetes patients | 200 mg, day 15, 24 h urine collection | baseline: baseline | urinary potassium excretion change | 2.98 mEq |
| CCN1/C(=C/C(C)=O)Sc2ccc(F)cc21 | – | cynomolgus monkey | oral, 30 mg/kg, 24 h post-dose | – | systolic blood pressure | 110 ± 4 mmHg |
| O=C(Nc1nc2cccc(-c3ccc(CN4CCS(=O)(=O)CC4)cc3)n2n1)C1CC1 | item: animal bite | human rheumatoid arthritis patients | oral, 300 mg once daily, 4 weeks, regardless of relatedness | – | treatment-emergent adverse events | 0% |
| CN(CC#N)C(=O)C[C@H](Nc1nc2ccccc2[nH]1)c1cccc(C(F)(F)F)c1 | – | human | intravenous infusion, 2 mg/kg, 1 mg/mL formulation | – | steady-state volume of distribution | 49.1 ± 4.73 L |
| NC1(C(=O)N[C@@H](CCO)c2ccc(Cl)cc2)CCN(c2nc[nH]c3nccc2-3)CC1 | – | metastatic CRPC patients | 480 mg b.i.d., grade 3 to 4, treatment-related, together with: enzalutamide 160 mg daily | – | incidence of weight decreased | 0% |
| CC[C@H](C)[C@H](NC(=O)[C@H](CO)NC(=O)[C@H](Cc1ccc(O)cc1)NC(=O)[C@H](CC(=O)O)NC(=O)[C@H](CO)NC(=O)[C@@H](NC(=O)[C@H](Cc1ccccc1)NC(=O)[C@@H](NC(=O)CNC(=O)[C@H](CCC(=O)O)NC(=O)[C@H](C)NC(=O)[C@@H](N)Cc1ccc(O)cc1)[C@@H](C)O)[C@@H](C)CC)C(=O)N[C@@H](C)C(=O)N[C@@H](CCSC)C(=O)N[C@@H](CC(=O)O)C(=O)N[C@@H](CCCCN)C(=O)N[C@H](C(=O)N[C@@H](Cc1c[nH]cn1)C(=O)N[C@@H](CCC(N)=O)C(=O)N[C@@H](CCC(N)=O)C(=O)N[C@@H](CC(=O)O)C(=O)N[C@@H](Cc1ccccc1)C(=O)N[C@H](C(=O)N[C@@H](CC(N)=O)C(=O)N[C@@H](Cc1c[nH]c2ccccc12)C(=O)N[C@@H](CC(C)C)C(=O)N[C@@H](CC(C)C)C(=O)N[C@@H](C)C(=O)N[C@@H](CCC(N)=O)C(=O)N[C@@H](CCCCN)C(=O)NCC(=O)N[C@@H](CCCCN)C(=O)N[C@@H](CCCCN)C(=O)N[C@@H](CC(N)=O)C(=O)N[C@@H](CC(=O)O)C(=O)N[C@@H](Cc1c[nH]c2ccccc12)C(=O)N[C@@H](CCCCN)C(=O)N[C@@H](Cc1c[nH]cn1)C(=O)N[C@@H](CC(N)=O)C(=O)N[C@H](C(=O)N[C@H](C(=O)N[C@@H](CCC(N)=O)C(=O)O)[C@@H](C)O)[C@@H](C)CC)C(C)C)[C@@H](C)CC | GIPR luciferase bioassay | C57BL/6 mice male, serum | subcutaneous, 1.25 µg, 1 h | – | active peptide in serum | not detected |
| Cn1cc(Nc2nccc(-c3ccc4c(c3)CN(C3COC3)CC[C@H]4NC(=O)c3cn(C(C)(C)C)nn3)n2)cn1 | item: B cell count | human, clinical trial, whole blood | 150 mg twice daily, follow-up | – | percent change from baseline | -2.96% |
| N#Cc1ccc2c(c1)[C@H]1CCCN(C(=O)c3ccc4[nH]cnc4c3)[C@H]1C2 | – | human, male | 20 mg, day 15 | – | androstenedione level | 9.5 nmol/L |
| CNCCOC12CC3(C)CC(C)(CC(Cn4ncc(-c5ccc(N6CCc7cccc(C(=O)Nc8nc9ccccc9s8)c7C6)nc5C(=O)O)c4C)(C3)C1)C2 | – | beagle dog, male, anaesthetised | intravenous bolus, 0.03 mg/kg, 30 min | baseline: baseline | dP/dt at 50 change | 9% |
| OC[C@H]1OC(O)[C@H](O)[C@@H](O)[C@@H]1O (stereo partly drawn) | – | aqueous solution | 35 mM, together with: glucosamine | – | osmolality | 33 mOsmol/kg |
| Cc1cccc(NS(=O)(=O)c2cc(C(=O)Nc3ccccc3C(=O)N3CCOCC3)ccc2Cl)c1 | – | octanol/buffer | pH 11, known kinase inactives set | – | logP | 0.39 |
| O=c1c2ccccc2oc2ccccc12 | – | tricaprin-tricaprylin mixture | 75 °C, tricaprin fraction 0.77 | – | solubility | 0.0875 mole fraction |

A few entries again:
| SMILES | test | test system | setting | scale | measurement | value |
| --- | --- | --- | --- | --- | --- | --- |
| C[C@@H](O)CCOC(=O)C[C@@H](C)O | item: pH | human, venous blood | oral, 60 min, unit not given | baseline: baseline | decrease | -0.07 |
| CO[C@H]1C[C@@H]2CC[C@@H](C)[C@@](O)(O2)C(=O)C(=O)N2CCCC[C@H]2C(=O)O[C@H]([C@H](C)C[C@@H]2CC[C@@H](O)[C@H](OC)C2)CC(=O)[C@H](C)/C=C(\C)[C@@H](O)[C@@H](OC)C(=O)[C@H](C)C[C@H](C)/C=C/C=C/C=C/1C | – | healthy adult horses | oral, 0.06 mg/kg, 12 h | – | heart rate | 33.5 ± 1.9 beats/min |
| NC1(C(=O)N[C@@H](CCO)c2ccc(Cl)cc2)CCN(c2nc[nH]c3nccc2-3)CC1 | – | human | – | – | zero-order absorption duration | 45 h |
| CNCc1ccc(-c2[nH]c3cc(F)cc4c3c2CCNC4=O)cc1 | – | patients | oral, 600 mg twice daily, grade 4 | – | abdominal distension incidence | 0% |
| Nc1cccc2ccc(/C=C/C(=O)c3ccccc3)cc12 | – | toluene | – | baseline: coumarin 153 in ethanol | fluorescence quantum yield | 46.5 ± 2.2% |
| Cn1ncnc1[C@H]1c2n[nH]c(=O)c3cc(F)cc(c23)N[C@@H]1c1ccc(F)cc1 | LC-MS/MS | human patients, plasma | oral, 600 µg/m2/day | – | accumulation half-life | 60 ± 51 h |
